Experimental data gathered from unrelated publications.
Numbered parts are unrelated; each lists some results of a single study.

Study 1 — method: RNA Bind-n-Seq; form: RNA; medium: in vitro; tested at: 1 µM; notes: whole 134-nt RNA, ends assumed; together with: 150 mM KCl; baseline: input library; direction: higher = stronger binding
Target: Ras GTPase-activating protein-binding protein 1, C-terminal RGG region (G3BP1, Homo sapiens, UniProt Q13283)
Sequence of UniProt Q13283 (whole entry, looked up): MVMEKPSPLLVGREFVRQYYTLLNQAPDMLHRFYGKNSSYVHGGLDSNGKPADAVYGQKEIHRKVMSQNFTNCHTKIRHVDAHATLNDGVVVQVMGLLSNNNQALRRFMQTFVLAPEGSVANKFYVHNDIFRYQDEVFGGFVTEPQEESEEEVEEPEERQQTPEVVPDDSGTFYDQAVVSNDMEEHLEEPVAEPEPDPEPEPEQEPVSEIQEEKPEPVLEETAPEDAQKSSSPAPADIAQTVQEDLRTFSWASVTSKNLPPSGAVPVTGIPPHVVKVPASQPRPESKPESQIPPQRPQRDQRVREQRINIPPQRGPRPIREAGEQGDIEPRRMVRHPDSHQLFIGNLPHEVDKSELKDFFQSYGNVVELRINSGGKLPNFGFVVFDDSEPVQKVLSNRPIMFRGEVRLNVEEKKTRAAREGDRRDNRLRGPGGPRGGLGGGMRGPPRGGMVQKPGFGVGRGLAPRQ
Strand	log2 enrichment
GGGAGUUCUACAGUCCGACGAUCAGGCCCUGGUGGCAUGCGGGGAGGAAGAGGUGGCCUCAUGGAUCGUGGUGGUCCCGGUGGAAUGUUCAGAGGUGGCCGUGGUGGAGACAGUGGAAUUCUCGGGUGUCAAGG	2.36
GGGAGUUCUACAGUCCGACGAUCAGUCCUGUGCUACACAUCGUAUGUACCGAAUCGGUUUUUGGAAAAAAAGGUUUUUGGAAAGUAUUAUGUUACGCCGUUCGGAUCUGCACUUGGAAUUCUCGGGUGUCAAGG	-2.39
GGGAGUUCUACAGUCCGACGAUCCUGUGCUACACAUCGUAUGUACCGAAUCGGGGAAAAAGGGGUUUUUUUGGGGAAAAAGGGGAAAGUAUUAUGUUACGCCGUUCGGAUCUGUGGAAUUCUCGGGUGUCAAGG	-0.118
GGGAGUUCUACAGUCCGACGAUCAGUCCUGUGCUACACAUCGUAUGUACCGAAUCGGGGAAAAAGGAAAAAGGAAAAAGGGAAAGUAUUAUGUUACGCCGUUCGGAUCUGCACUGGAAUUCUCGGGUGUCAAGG	-1.84
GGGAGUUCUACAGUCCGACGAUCCUCAAGUCCUGUGCUACACAUCGUAUGUACCGAAUCGGGCCGGGCCGGCCGGGAAAGUAUUAUGUUACGCCGUUCGGAUCUGCACUUCCAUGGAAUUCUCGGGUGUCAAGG	-1.03
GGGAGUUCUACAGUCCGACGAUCGCAGGAAGUAAAAACAAAUGGAAAUGCUUCGGAUAGUGGCAGGGGUGGGGGUUGCUACGGAAAGGGUGGGAUGGGAGUGGGUAAAGAGUUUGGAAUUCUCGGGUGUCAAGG	2.49
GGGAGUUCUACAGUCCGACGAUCUGUGCUACACAUCGUAUGUACCGAAUCGGGGUUUUUUUGGGUUUUUUUGGGUUUUUUUGGGGAAAGUAUUAUGUUACGCCGUUCGGAUCUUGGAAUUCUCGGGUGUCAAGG	-0.72
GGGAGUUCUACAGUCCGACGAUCCACAGACAACACGCACCCACACAGACACAUAGGGAAGGGGUUGGGAUGGGGACAGGGUGCACAGCAGGGCGGGGUAGGACCCCAGCCCCUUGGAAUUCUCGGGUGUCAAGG	0.182
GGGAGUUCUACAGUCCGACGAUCAAGUCCUGUGCUACACAUCGUAUGUACCGAAUCGGGUUUGGGUUUUUGGGAAAGGGAAAGUAUUAUGUUACGCCGUUCGGAUCUGCACUUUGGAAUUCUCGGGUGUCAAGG	1
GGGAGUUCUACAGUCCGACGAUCCACAGACAACACGCACCCACACAGGCACAGAGGGAAGGGGUUGGGAUGGGGACAGGGUGCACAGCAGGGCGGGGUAGGACCCCAGCCCCUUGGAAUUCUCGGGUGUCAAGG	-0.152

Study 2 — method: aptamer microarray, sandwich; form: DNA with 2'F-ANA; medium: in vitro; tested at: 200 nM; together with: Cy3 exosite-II aptamer, 400 nM; direction: higher = stronger binding; strand: GGTTGGTGTGGTTGG
Target: Prothrombin, mature alpha-thrombin (F2, Homo sapiens, UniProt P00734)
Notes: whole 15-mer aptamer, many near background
Modification	mean fluorescence intensity
2'F-ANA at 1 3 4 6 7 9 10 11 13 14 15	50.9 a.u.
2'F-ANA at 1 2 4 6 11 12	218 a.u.
2'F-ANA at 2 3 4 6 7 8 11 12 13 14 15	250 a.u.
2'F-ANA at 8 10 12	191 a.u.
2'F-ANA at 5 6 7 8 9 11 12 15	136 a.u.
2'F-ANA at 1 2 3 8 10 11 12 13 15	91.1 a.u.
2'F-ANA at 2 3 6 10 13	314 a.u.
2'F-ANA at 7 9 10 13 14 15	102 a.u.
2'F-ANA at 1 2 4 10 11 12	74 a.u.
2'F-ANA at 1 3 4 5 9 12 14 15	46.5 a.u.
2'F-ANA at 2 3 4 8 9 11 12 13 15	560 a.u.
2'F-ANA at 2 4 10 11 12 14 15	71.7 a.u.
2'F-ANA at 3 4 5 6 10 11 12 13 14	47.4 a.u.
2'F-ANA at 1 3 6 15	312 a.u.
2'F-ANA at 3 4 6 8 10 12	297 a.u.
2'F-ANA at 4 6 7 9 14 15	73 a.u.
2'F-ANA at 1 4 5 6 9 11	49.1 a.u.
2'F-ANA at 2 3 8 11 12 14 15	382 a.u.
2'F-ANA at 3 4 6 7 11 13	455 a.u.
2'F-ANA at 2 3 4 6 7 8 11 12	816 a.u.
2'F-ANA at 4 7 8 11 13 14 15	107 a.u.
2'F-ANA at 5 7 11 14	50.3 a.u.

Study 3 — method: RNA Bind-n-Seq; form: RNA; medium: in vitro; tested at: 365 nM; baseline: no-protein control; direction: higher = stronger binding
Target: RNA binding protein fox-1 homolog 2, RRM domain, GST-SBP tag (RBFOX2, Homo sapiens, UniProt O43251-10, residues 100-194)
Notes: natural RNA segment, single round, ends assumed
Target sequence (chain): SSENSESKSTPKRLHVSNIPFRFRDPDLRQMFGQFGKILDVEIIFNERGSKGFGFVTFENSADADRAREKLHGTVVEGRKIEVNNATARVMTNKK
Strand	RBNS enrichment (R)
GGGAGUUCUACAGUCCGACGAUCUGGGUGGGCCUGACUGUUGCCCCCCAGGGUCCUAAAACUUGGAUGGACUUGUAUAGUGAGAGAGGAGGCCUGGACCGAGAUGUGAGUCCUGUUGAAGACUUCCUCUCUACUGGAAUUCUCGGGUGCCAA	0.748
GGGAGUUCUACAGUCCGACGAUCAAAUGUGAAGGGGAGAGACAGGGGCCGCCCUUGGCUCCUGUCCCUGCUGCUCCUCUAGGCCUCACUCAACAACCAAGCGCCUGGAGGACGGGACAGAUGGACAGACAGCCUGGAAUUCUCGGGUGCCAA	0.256
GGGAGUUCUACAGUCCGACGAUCCCCUGACCUCCAGAAAGAAGCCAUGCAGUAUAAACUCCUUGUGGUGAACAAGUCUGUUCAUGGCAAACGUGGCUCGAGCCCACCAGACACCAGCGCAGAGCGGGGGCAGCUGGAAUUCUCGGGUGCCAA	0.328
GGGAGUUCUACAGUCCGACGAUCUUAAGAUAUUUUGAUUUCAAUAACAAAAAUAAUACAAGAGUUUAAUCUGUGGAUUAUGUUCCUGAUCAUUUGCAGUUAAGGAAUUUAAAUAAAUCACAUGUUAACGACAAUGGAAUUCUCGGGUGCCAA	0.286
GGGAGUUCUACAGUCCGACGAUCCUGAGAGUAGGAAGGCCAGGCCCUUGAGGUCCUGUCCCAUGGGACAGCACACACACUACCUGCAAUGGCCUGCCCAUUCCCUUCAGCUAUUUGUCCUUUUCUUACUGGCAUGGAAUUCUCGGGUGCCAA	0.526
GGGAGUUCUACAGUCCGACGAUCCCGCGCCAGAGCCUCACAGCCACAGCCACACCAACCUCCCUCCUCUCAAGCAGCAGAAUCAGCCUACGCUCCCCAGCCUCAGUGCCCCUGCCCCACACAGGUCACGCUGGUGGAAUUCUCGGGUGCCAA	0.477
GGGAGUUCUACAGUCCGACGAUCCCCAAGAGCCUGGAGGCACUGCUGUCCUUCCUGCAGAAACAGUUUCUCCUCCUCCCCUCAGCCUUGUGGCCAGUUCCUCUUCACAUGAAGCCCCUGGCAUUUGCUGGGGAUGGAAUUCUCGGGUGCCAA	0.378
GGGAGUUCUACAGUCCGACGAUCCUAGUGUUUCACAUAAAAAUACUUCUGACAUAAAGUACCAAGAGCAGUGUGAAUAUACUUGGCAUAGUCAAAAAAGAAAAUACAUUUAAUAUUAGUUCAAAAUUGUUAAAUGGAAUUCUCGGGUGCCAA	0.54
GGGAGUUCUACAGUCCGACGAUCUAUCCAAGAAGUUUUUUGGGCGAAAAUCUUGGAUCAUUUUUAUGUAGCAUGAUUUUCCUUGGGAUGCAAAUCUUAAAACAGUCCUUUAAUAUGAACCAACAAUCUGGAGCUGGAAUUCUCGGGUGCCAA	0.648
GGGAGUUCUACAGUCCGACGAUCAGGGAAGGGAGUGUAUAAGGAAGGAAACCUCAUACCCUCCAUUCCCAUCCCUGGAUAUAUUGCCUUUUCAGCAGCCUCGGGUUCAGUGUGCUUGGGGUCAGGAGUGCCAGUGGAAUUCUCGGGUGCCAA	0.366
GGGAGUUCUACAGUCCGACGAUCACUCACACACACUUGGUCAGAGAUGCUGUGCUUCUUGGAAGCAAGGACUCAAAGGCAAGGUGCACGCAGAGGACGUUUGAGUCUGGGAUGAAGCAUGUACGUAUUAUUUAUGGAAUUCUCGGGUGCCAA	17.4
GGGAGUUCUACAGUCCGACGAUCACCCUGGGAAAUUUGAGGGACCCCAAAAACUGAGGUCUCCUGCUUUCUCCAUAAUUUGGUCUCCUCUUGGGUUUGGGGAUAGUUCUAAUUUGGAGAGCUGUUUUAUCUCCUGGAAUUCUCGGGUGCCAA	0.249

Other studies, line by line
Substance	target	assay	system	conditions	how to read	endpoint	result
PhoQ, residues 284 288 289 292 302 303 TLSLKA	PhoP, residues 12 14 15 18 19 LFHKL (Escherichia coli, UniProt P23836)	Sort-seq, refers to: YFP reporter	E. coli	PhoQ-PhoP variant library, together with: 10 µM Mg2+	baseline: high Mg2+ state, higher = stronger signaling	fold induction	0.564

Some of these lines once more (study 1):
Strand	log2 enrichment
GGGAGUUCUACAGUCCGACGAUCCUGUGCUACACAUCGUAUGUACCGAAUCGGGGAAAAAGGGGUUUUUUUGGGGAAAAAGGGGAAAGUAUUAUGUUACGCCGUUCGGAUCUGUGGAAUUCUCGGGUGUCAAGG	-0.118
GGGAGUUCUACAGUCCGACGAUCAGUCCUGUGCUACACAUCGUAUGUACCGAAUCGGGGAAAAAGGAAAAAGGAAAAAGGGAAAGUAUUAUGUUACGCCGUUCGGAUCUGCACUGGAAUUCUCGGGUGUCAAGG	-1.84
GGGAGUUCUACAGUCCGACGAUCCUCAAGUCCUGUGCUACACAUCGUAUGUACCGAAUCGGGCCGGGCCGGCCGGGAAAGUAUUAUGUUACGCCGUUCGGAUCUGCACUUCCAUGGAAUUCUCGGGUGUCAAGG	-1.03
